{"data": "Results pooled from the literature", "note": "Parts stem from different laboratories: compare values within a part only."}
{"data": "Study 1", "target": "TAR DNA-binding protein 43, full length, His tag (TARDBP, Homo sapiens, UniProt Q13148, residues 1-414)", "technique": "RNA Bind-n-Seq", "molecule type": "RNA", "sample": "in vitro", "tested at": "20 nM", "notes": "6-mer, flanks averaged, single round", "added": "150 mM KCl", "reference": "input library", "reading": "higher = stronger binding"}
{"Oligonucleotide": "GGGCAG", "6-mer enrichment (R)": 4.6}
{"Oligonucleotide": "UUUCAU", "6-mer enrichment (R)": 0.559}
{"Oligonucleotide": "UCGCCC", "6-mer enrichment (R)": 0.62}
{"Oligonucleotide": "GCCAGU", "6-mer enrichment (R)": 0.887}
{"Oligonucleotide": "AUCUCU", "6-mer enrichment (R)": 0.539}
{"data": "Study 2", "target": "Interferon regulatory factor 3, full length, phosphomimetic (IRF3, Homo sapiens, UniProt Q14653, residues 1-427, S386D/S396D/S398D/S402D/T404D/S405D)", "technique": "protein-binding microarray", "molecule type": "double-stranded DNA, one strand shown", "sample": "in vitro", "tested at": "2540 nM top", "notes": "60-bp whole probe", "added": "salmon DNA 0.4 mg/ml", "reference": "random background probes", "reading": "higher = stronger binding", "shared flanks, not repeated": "GCCTAGCAC … GTCTTGATTCGCTTGACGCTGCTG", "Target sequence (chain)": "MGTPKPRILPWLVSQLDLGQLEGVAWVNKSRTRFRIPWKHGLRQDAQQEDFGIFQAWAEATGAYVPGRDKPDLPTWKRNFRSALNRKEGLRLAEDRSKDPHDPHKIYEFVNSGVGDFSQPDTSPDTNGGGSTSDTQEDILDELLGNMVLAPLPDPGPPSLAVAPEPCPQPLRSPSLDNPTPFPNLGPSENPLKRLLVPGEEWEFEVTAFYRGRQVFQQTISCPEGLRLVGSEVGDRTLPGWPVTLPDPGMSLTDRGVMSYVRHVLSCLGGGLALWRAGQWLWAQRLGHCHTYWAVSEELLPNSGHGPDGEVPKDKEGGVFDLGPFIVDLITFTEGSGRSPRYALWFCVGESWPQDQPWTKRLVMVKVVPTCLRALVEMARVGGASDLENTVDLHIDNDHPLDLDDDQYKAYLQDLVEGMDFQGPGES"}
{"Oligonucleotide": "TTAGAACTGAGTCTCGACTAGTGCTAG", "fitted relative affinity": "-0.619 z-score"}
{"Oligonucleotide": "GAGTCTTCTCCTCTAGGTTCGTGCTAG", "fitted relative affinity": "0.0748 z-score"}
{"Oligonucleotide": "TCCTCTCTGCCACTCAGGTAGTGCTAG", "fitted relative affinity": "0.713 z-score"}
{"Oligonucleotide": "GTGATCCGTCCGCCTCAGCCGTGCTAG", "fitted relative affinity": "0.422 z-score"}
{"Oligonucleotide": "CCTTGTACGTCGTTTCCCAAGGTGCTA", "fitted relative affinity": "1.74 z-score"}
{"Oligonucleotide": "GCAACACTCACCATGGCTAGGTGCTAG", "fitted relative affinity": "0.041 z-score"}
{"data": "Study 3", "target": "Histone acetyltransferase KAT6A, winged helix 2, GST fusion (KAT6A, Homo sapiens, UniProt Q92794, residues 85-181)", "technique": "protein binding microarray", "molecule type": "double-stranded DNA, one strand shown", "sample": "in vitro", "tested at": "not given", "notes": "8-mer, flanks averaged, mean of 2 arrays, mostly near background", "reference": "not given", "reading": "higher = stronger binding", "Residues (chain)": "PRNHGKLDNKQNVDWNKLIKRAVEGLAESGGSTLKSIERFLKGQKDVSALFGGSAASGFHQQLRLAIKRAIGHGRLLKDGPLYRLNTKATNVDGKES"}
{"Oligonucleotide": "CCATTAGG", "E-score": -0.0538}
{"Oligonucleotide": "CTTGGCTC", "E-score": -0.111}
{"Oligonucleotide": "CGTGTGGC", "E-score": -0.0355}
{"Oligonucleotide": "ATCGAACG", "E-score": -0.127}
{"Oligonucleotide": "ACGCTGGG", "E-score": -0.0433}
{"data": "Mixed results"}
{"Molecule": "PhoQ, residues 284 288 289 292 302 303 TYGVAM", "target": "PhoP, residues 12 14 15 18 19 LHTVM (Escherichia coli, UniProt P23836)", "test": "Sort-seq, refers to: YFP reporter", "test system": "E. coli", "conditions": "PhoQ-PhoP variant library, added: 10 µM Mg2+", "scale": "reference: high Mg2+ state, higher = stronger signaling", "endpoint": "fold induction", "result": 12.9}
{"note": "For quick reference, copied from above (study 1):"}
{"Oligonucleotide": "GCCAGU", "6-mer enrichment (R)": 0.887}
